Published values from different studies.
Protocols differ between the studies behind these lines. ± gives the spread as reported.
HDAC1: Histone deacetylase 1 (HDAC1, Homo sapiens, UniProt Q13547)
UniProt Q13547, sequence (whole entry, looked up): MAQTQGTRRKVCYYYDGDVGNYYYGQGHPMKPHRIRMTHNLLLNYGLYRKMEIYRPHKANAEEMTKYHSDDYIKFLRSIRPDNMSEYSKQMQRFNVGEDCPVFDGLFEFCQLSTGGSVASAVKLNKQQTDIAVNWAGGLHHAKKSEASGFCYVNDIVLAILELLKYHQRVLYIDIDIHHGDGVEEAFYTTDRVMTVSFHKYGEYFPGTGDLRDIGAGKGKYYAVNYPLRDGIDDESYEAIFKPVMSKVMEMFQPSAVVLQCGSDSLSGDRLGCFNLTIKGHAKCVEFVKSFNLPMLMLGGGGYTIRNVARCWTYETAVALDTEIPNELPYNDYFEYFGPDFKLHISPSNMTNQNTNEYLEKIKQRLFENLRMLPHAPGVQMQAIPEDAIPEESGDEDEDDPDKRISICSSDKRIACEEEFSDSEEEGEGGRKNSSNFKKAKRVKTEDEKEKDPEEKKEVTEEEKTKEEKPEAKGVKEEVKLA
CTSL: Procathepsin L (CTSL, Homo sapiens, UniProt P07711)
UniProt P07711, sequence (whole entry, looked up): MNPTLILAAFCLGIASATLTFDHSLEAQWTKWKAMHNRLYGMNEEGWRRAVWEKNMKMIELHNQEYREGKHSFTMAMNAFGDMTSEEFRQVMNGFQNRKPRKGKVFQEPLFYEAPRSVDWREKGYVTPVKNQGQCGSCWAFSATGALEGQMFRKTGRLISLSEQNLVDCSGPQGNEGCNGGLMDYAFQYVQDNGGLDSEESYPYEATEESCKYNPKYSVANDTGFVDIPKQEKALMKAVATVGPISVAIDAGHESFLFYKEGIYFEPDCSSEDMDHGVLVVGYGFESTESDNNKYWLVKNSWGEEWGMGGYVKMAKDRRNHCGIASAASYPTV
HTR2C: 5-hydroxytryptamine receptor 2C (HTR2C, Homo sapiens, UniProt P28335)
UniProt P28335, sequence (whole entry, looked up): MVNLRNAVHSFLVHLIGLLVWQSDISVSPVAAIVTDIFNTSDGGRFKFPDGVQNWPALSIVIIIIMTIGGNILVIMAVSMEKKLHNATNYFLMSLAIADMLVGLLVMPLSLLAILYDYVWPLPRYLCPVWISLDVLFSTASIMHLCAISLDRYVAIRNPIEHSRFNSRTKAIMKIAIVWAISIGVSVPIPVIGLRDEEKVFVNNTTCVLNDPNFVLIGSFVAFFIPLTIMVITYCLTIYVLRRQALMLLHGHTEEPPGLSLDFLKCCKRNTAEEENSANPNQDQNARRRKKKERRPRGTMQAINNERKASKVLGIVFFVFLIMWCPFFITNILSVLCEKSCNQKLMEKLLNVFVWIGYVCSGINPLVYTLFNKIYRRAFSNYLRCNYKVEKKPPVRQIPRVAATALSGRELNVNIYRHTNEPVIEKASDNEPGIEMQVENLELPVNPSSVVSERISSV
MAPKAPK3: MAP kinase-activated protein kinase 3 (MAPKAPK3, Homo sapiens, UniProt Q16644)
UniProt Q16644, sequence (whole entry, looked up): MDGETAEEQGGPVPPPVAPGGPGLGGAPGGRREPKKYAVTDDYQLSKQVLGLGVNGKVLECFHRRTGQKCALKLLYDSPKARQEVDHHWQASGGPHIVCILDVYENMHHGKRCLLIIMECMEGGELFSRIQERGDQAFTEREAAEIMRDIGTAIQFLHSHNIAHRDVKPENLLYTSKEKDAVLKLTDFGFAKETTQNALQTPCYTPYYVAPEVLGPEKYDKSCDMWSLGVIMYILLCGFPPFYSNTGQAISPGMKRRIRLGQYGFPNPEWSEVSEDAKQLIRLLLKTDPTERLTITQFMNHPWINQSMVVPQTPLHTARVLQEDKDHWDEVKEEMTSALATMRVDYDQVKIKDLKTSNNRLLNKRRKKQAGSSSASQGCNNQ
Faah: Fatty-acid amide hydrolase 1 (Faah, Mus musculus, UniProt O08914)
UniProt O08914, sequence (whole entry, looked up): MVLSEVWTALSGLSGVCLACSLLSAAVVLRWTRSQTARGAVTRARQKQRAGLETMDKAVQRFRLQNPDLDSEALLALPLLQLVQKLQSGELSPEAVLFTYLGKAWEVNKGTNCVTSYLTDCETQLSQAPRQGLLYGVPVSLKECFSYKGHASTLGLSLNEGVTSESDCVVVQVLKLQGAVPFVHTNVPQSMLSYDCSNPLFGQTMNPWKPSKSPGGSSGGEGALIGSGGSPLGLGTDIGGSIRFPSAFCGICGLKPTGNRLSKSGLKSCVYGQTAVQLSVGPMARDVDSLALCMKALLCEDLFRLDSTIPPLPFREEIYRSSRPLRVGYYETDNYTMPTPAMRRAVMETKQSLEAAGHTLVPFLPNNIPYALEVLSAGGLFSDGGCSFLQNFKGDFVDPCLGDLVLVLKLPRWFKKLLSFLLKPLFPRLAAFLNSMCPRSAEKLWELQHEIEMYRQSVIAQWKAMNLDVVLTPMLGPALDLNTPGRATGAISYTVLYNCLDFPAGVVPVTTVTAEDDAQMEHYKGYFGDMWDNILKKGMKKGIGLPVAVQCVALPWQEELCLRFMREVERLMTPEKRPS
SIRT6: NAD-dependent protein deacylase sirtuin-6 (SIRT6, Homo sapiens, UniProt Q8N6T7)
UniProt Q8N6T7, sequence (whole entry, looked up): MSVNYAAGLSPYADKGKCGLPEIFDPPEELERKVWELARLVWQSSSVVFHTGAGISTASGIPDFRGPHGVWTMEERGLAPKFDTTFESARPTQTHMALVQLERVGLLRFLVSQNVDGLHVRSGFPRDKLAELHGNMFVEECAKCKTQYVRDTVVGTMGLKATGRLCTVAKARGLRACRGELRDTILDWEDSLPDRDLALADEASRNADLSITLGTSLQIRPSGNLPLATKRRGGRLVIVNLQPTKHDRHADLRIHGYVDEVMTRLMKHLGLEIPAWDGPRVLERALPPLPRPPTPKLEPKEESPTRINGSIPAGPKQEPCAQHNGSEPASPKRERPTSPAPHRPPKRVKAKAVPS
UniProt P51531, sequence (whole entry, looked up): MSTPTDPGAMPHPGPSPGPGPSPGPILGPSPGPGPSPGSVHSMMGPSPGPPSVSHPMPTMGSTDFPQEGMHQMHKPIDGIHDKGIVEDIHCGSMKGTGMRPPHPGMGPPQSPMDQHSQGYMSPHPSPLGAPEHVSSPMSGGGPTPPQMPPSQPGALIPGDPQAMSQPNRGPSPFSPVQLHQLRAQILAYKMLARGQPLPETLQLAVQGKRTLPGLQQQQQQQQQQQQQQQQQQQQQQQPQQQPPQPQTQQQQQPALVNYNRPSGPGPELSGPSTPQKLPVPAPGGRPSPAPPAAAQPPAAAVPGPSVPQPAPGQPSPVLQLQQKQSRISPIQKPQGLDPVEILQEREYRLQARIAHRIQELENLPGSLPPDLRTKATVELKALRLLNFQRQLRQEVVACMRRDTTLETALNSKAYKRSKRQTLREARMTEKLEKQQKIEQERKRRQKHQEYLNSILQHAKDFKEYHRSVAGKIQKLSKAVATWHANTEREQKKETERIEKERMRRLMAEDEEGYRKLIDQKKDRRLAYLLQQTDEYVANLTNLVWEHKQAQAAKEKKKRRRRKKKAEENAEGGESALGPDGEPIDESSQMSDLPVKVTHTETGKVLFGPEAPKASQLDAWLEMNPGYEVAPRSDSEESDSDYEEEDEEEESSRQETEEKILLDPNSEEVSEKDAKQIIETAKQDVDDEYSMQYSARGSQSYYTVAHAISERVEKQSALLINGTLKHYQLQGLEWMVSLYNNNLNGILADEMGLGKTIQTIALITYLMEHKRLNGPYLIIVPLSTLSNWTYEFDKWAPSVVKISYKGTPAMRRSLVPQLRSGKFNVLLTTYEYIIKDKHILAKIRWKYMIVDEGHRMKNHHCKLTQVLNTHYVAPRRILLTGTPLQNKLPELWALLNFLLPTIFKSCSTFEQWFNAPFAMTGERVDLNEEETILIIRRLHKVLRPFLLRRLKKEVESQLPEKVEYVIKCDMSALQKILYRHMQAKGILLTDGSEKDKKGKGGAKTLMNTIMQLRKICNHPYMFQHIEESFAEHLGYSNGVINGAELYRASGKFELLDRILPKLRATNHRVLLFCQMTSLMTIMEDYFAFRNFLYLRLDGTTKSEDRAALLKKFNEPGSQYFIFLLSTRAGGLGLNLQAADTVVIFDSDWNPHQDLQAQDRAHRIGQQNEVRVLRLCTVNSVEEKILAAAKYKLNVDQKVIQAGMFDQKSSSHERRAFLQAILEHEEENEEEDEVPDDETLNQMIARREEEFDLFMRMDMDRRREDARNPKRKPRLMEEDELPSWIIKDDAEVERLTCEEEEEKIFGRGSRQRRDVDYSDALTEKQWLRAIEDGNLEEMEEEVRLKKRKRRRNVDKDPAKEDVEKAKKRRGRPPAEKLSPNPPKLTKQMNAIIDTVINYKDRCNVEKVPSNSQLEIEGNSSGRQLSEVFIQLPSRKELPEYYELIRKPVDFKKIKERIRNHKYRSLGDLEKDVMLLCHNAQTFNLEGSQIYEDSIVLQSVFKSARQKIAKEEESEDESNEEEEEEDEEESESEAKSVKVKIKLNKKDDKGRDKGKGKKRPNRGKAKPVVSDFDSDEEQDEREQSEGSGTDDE
UniProt P48145, sequence (whole entry, looked up): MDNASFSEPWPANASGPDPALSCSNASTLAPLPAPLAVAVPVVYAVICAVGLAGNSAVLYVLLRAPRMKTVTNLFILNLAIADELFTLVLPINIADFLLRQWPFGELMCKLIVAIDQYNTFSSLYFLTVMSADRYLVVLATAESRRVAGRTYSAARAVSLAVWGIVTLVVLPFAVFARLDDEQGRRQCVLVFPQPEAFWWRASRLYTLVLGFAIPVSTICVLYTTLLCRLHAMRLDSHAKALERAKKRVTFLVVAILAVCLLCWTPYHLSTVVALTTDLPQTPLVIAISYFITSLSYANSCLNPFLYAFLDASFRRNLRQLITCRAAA
UniProt P25105, sequence (whole entry, looked up): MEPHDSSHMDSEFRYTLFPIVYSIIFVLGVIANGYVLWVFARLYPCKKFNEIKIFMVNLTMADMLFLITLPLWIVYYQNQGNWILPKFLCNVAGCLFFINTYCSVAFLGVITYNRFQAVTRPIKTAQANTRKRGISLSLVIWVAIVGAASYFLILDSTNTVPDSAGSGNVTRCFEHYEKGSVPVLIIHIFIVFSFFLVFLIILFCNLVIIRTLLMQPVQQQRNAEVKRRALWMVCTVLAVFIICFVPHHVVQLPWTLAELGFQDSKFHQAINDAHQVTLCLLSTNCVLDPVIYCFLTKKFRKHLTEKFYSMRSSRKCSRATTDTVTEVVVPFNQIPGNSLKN

Compound	target	test	system	setting	inhibition [%]
COCC(=O)N1CCc2cc(-c3csc(NC(=O)c4cc(OC)cc(OC)c4)n3)ccc21	Platelet-activating factor receptor (PTAFR, Homo sapiens, UniProt P25105)	ligand displacement, radioligand		10 µM	23
COc1ccc2nc(C)ccc2c1Nc1sn(C)c(=O)c1C#N	Nicotinamide phosphoribosyltransferase (NAMPT, Homo sapiens, UniProt P43490)	enzyme activity, inhibitor		10 µM	2
Cc1c(COc2cc(OCc3cccc(C#N)c3)c(CNCCO)cc2Cl)cccc1-c1cccc(OCCCCCC(=O)NO)c1	HDAC1	enzyme activity, inhibitor		1 µM	72.6
CN(Cc1ccc(/C=C/C(=O)NO)cc1)CC12CC3CC(CC(C3)C1)C2	human D5 receptor	antagonist radioligand binding		0.05 µM	-1
CC(C)C[C@H](NC(=O)[C@H](CC(C)C)NC(=O)CNC(=O)[C@H](C)NC(=O)[C@H](C)NC(=O)[C@@H](CCCNC(=N)N)NC(=O)CNC(=O)CCCCNC(=O)CCCCNC(=O)CCCCNC(=O)[C@H](CCCCN)NC(=O)[C@H](Cc1ccc(O)cc1)NC(=O)[C@@H](N)Cc1c[nH]c2ccccc12)C(N)=O	Neuropeptides B/W receptor type 1 (NPBWR1, Homo sapiens, UniProt P48145)	calcium signal, antagonist		10 µM	63
C/C=C/C(=O)Nc1ccc2nc(NCCCCCN(C)C)nc(NCCCCCCN(C)C)c2c1	Histone-lysine N-methyltransferase SUV39H1 (SUV39H1, Homo sapiens, UniProt O43463)	enzyme activity, inhibitor, radiometric		10 µM	32
C[C@H](NC(=O)[C@H](CC(=O)NCC(C)(C)C)NC(=O)C(=O)c1c[nH]c2ccccc12)C(=O)NCc1ccc(F)cc1F	CTSL	enzyme activity, inhibitor		100 µM	-6
CC(C)Cn1c(SCC(=O)N2CCc3ccccc3C2)nc2cc(Cl)ccc2c1=O	HTR2C	ligand displacement, radioligand		10 µM	-7
Cc1cccc(O[C@H]2CCC[C@@H](C(C)CNCc3ccncc3)C2)c1 (relative stereo)	MAPKAPK3	enzyme activity, inhibitor		10 µM	-12
Cc1c(COc2cc(OCc3cccc(C#N)c3)c(CNC(C)(CO)CO)cc2Cl)cccc1-c1cccc(OCc2ccc(C(=O)NO)cc2)c1	HDAC1	enzyme activity, inhibitor		1 µM	20.5
COc1cc(OC)c(F)c(/C=C/c2cnc3ccn(S(=O)(=O)c4cn(CCF)cn4)c3n2)c1F	Mast/stem cell growth factor receptor Kit (KIT, Homo sapiens, UniProt P10721)			1000 nM	7.9
CC(=O)NCCCC[C@H](NC(=O)[C@@H](NC(=O)[C@H](C)NC(=O)[C@H](CC(C)C)NC(=O)[C@H](CCC(N)=O)NC(=O)[C@H](CCCCN)NC(=O)[C@H](CCCNC(=N)N)NC(=O)[C@@H]1CCCN1C(=O)[C@H](C)NC(=O)[C@@H](N)CCCCN)[C@@H](C)O)C(=O)N[C@@H](C)C(=O)N[C@@H](C)C(=O)N[C@@H](CCCNC(=N)N)C(=O)N[C@@H](CCCCN)C(=O)N[C@@H](CO)C(=O)N[C@@H](C)C(=O)N1CCC[C@H]1C(=O)N[C@@H](C)C(=O)O	CTSL	enzyme activity, inhibitor		25 µM, pH 6.0, 25 °C, with: Z-LR-Mca at 0.16 x Km	82 ± 2
O=C(N1CCOCC1)n1ccnn1	Faah	serine hydrolase activity, inhibitor, competitive gel-based ABPP	mouse T-cell proteome	1 µM, 30 min, 37 °C	> 95
Cn1ccc2cc(-n3c(=O)[nH]c4sc5c(c4c3=O)CCCC5)ccc21	Sodium- and chloride-dependent GABA transporter 1 (Slc6a1, Rattus norvegicus, UniProt P23978)	transporter uptake, inhibitor		10 µM	-2
c1ccc(OC[C@H]2CN(CCN3CCc4ccccc43)CCO2)nc1	HTR2C	radioligand binding		concentration not given, with: [3H]mesulergine	15.5
CC(C)c1ccccc1OS(=O)(=O)Oc1cccc(C(=O)NO)c1	HDAC1	enzyme activity, inhibitor, fluorescence		10 µM	22
CCn1cc(-c2cccc(C(F)(F)F)c2)c2sc(C(=N)NC3CCS(=O)(=O)CC3)cc2c1=O	SWI/SNF-related matrix-associated actin-dependent regulator of chromatin subfamily A member 2 (SMARCA2, Homo sapiens, UniProt P51531)			1 µM	-8.65
C=CC(=O)N1Cc2nc(-c3cc(-c4cc(Cl)cnc4Cl)c(F)cc3F)n(-c3ccncn3)c2C1	Dual specificity testis-specific protein kinase 2 (TESK2, Homo sapiens, UniProt Q96S53)	cell-free assay, inhibitor		1 µM	-3.8
CCCCCCN(O)C(=O)CCCCC[C@@H]1NC(=O)CCSCc2cccc(n2)CSCCNC(=O)[C@H](CCc2ccccc2)NC(=O)[C@H](CC)NC1=O	HDAC1	enzyme activity, inhibitor, fluorogenic		30 µM	20

Compound	target	test	system	setting	inhibition [%]
Cc1c(COc2cc(OCc3cccc(C#N)c3)c(CNCCO)cc2Cl)cccc1-c1cccc(OCc2ccc(/C=C/C(=O)NO)cc2)c1	HDAC1	enzyme activity, inhibitor		1 µM	9.87
O=C(NO)c1cccc(OS(=O)(=O)Oc2cccc([N+](=O)[O-])c2)c1	HDAC1	enzyme activity, inhibitor, fluorescence		5 µM	51
Cc1c(COc2cc(OCc3cccc(C#N)c3)c(CN3CCCC[C@@H]3C(=O)O)cc2Cl)cccc1-c1cccc(OCCCCCCC(=O)NO)c1	HDAC1	enzyme activity, inhibitor		1 µM	82.2
C=CCNC(=O)[C@H](CCc1ccccc1)NC(=O)[C@H](CC(=O)NCC(C)(C)C)NC(=O)CCc1ccccc1	CTSL	enzyme activity, inhibitor		100 µM	7
O=C1c2sc(-c3ccc(N4CCC(F)C4)nc3F)nc2CCN1c1cccnc1 (centres unmarked)	Melanocortin receptor 4 (MC4R, Homo sapiens, UniProt P32245)	ligand displacement, radioligand		1 µM	-7
N=C(N)NCCCC(NC(=O)C(CC(=O)NO)Cc1ccc2ccccc2c1)C(=O)NC(Cc1c[nH]c2ccccc12)C(=O)NC(CCC(=O)O)C(N)=O (centres unmarked)	Macrophage metalloelastase (MMP12, Homo sapiens, UniProt P39900)			1 µM	98
CCCCCCCCCCCCCCN(O)C(=O)CCCCC[C@@H]1NC(=O)[C@H]([C@@H](C)CC)NC(=O)[C@H](Cc2ccccc2C(F)(F)F)NC(=O)CCSCc2cccc(n2)CSCCCNC1=O	HDAC1			30 µM	60
COc1ncc2nc(C)n(Cc3ncc(S(N)(=O)=O)cc3F)c2c1-c1ccccc1	Delta-type opioid receptor (OPRD1, Homo sapiens, UniProt P41143)	antagonist, cell-based		10 µM	-28.4
O=C1CO[C@H](CNC(=O)C2(c3ccc(Cl)cc3)CC2)CN1C1Cc2ccccc2C1	C-C chemokine receptor type 5 (CCR5, Homo sapiens, UniProt P51681)	β-arrestin recruitment, antagonist	CCR5	1 µM	2
O=C(Nc1ccc(C(F)F)cc1)[C@H](CC1CCCCC1)Nc1nn2c(=O)ccnc2s1	Dual specificity protein phosphatase 10 (Homo sapiens, UniProt Q9Y6W6)	enzyme activity, inhibitor		10 µM	-3
CN1CCN(C(=O)n2ccnn2)CC1	Faah	serine hydrolase activity, inhibitor, competitive gel-based ABPP	mouse T-cell proteome	1 µM, 30 min, 37 °C	50 to 95
CCCCCCCCCCCCCC(=S)NCCCC[C@H](NS(C)(=O)=O)C(=O)N[C@@H](C)C(=O)N[C@@H](CCCNC(=N)N)C(N)=O	SIRT6	enzyme activity, inhibitor		10 µM	41
Cc1ccc(CNC(=O)C(CCc2ccccc2)NC(=O)C(NC(=O)Cc2cccc(Oc3ccccc3)c2)C(C)O)cc1 (centres unmarked)	CTSL	enzyme activity, inhibitor		100 µM	16
C[Si]1(C[C@H](CN)CC(=O)O)CCCC1	nicotinic acetylcholine receptor, rat	binding, radioligand binding		70 µM, with: [3H]cytisine	-7
CCCCCCCCCCCCNC(=S)NCCCC[C@H](NC(=O)OCc1ccccc1)C(=O)N[C@@H](Cc1c[nH]c2ccccc12)C(=O)NC(C)C	SIRT6	enzyme activity, inhibitor		10 µM, with: myristoylated substrate	< 5
COc1cc(-c2cn(C)c(=O)c3cnccc23)cc(OC)c1CN(C)C	SWI/SNF-related matrix-associated actin-dependent regulator of chromatin subfamily A member 2, isoform B (SMARCA2, Homo sapiens, UniProt P51531)			1 µM	-2.4
CN(C)C/C=C/C(=O)Nc1ccc2nc(NCCCCCN(C)C)nc(NCCCCCCN(C)C)c2c1	N-lysine methyltransferase KMT5A (KMT5A, Homo sapiens, UniProt Q9NQR1)	enzyme activity, inhibitor, radiometric		50 µM	3
C[Si](C)(C)C[C@H](CN)CC(=O)O	GABA transporter, rat	binding, radioligand binding		250 µM, with: [3H]GABA	-15
C=CC(=O)Nc1cccc(-c2cnc3[nH]cc(C(=O)NC(C)(C)C)c3n2)c1	MAPKAPK3	enzyme activity, inhibitor		0.1 µM	1
